{"data": "Assay results pooled from the literature", "note": "A part holds a random share of what one study measured."}
{"data": "Series 1", "target": "RNA binding protein fox-1 homolog 2, RRM domain, GST-SBP tag (RBFOX2, Homo sapiens, UniProt O43251-10, residues 100-194)", "method": "RNA Bind-n-Seq", "molecule type": "RNA", "sample": "in vitro", "tested at": "365 nM", "notes": "natural RNA segment, single round, ends assumed", "relative to": "no-protein control", "direction": "higher = stronger binding", "constant ends, left off below": "GGGAGUUCUACAGUCCGACGAUC … UGGAAUUCUCGGGUGCCAA", "Construct (chain)": "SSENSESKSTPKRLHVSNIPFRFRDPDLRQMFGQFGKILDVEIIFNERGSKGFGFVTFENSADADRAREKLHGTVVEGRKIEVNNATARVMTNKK"}
{"Sequence": "GUUAUUGGGACUUGUAUUAUAGGUGAUGGUAUGUGAGAAUCCAGUUGGGACUCGCUGUUGCCAUCCUCUUUGUUGUAUCUGGUUUUCAUCACUAGACUCAGCAACCCUUC", "RBNS enrichment (R)": 0.323}
{"Sequence": "CUCUGUCUUACACACAUGCACACAUACACACACACUAAGUGCCUAGACUUUGAAUAGAUCUAGCAAUUGGACAUUAGUAAGCCUAAGUUUUUACAUGAUUGCAUUCCUAC", "RBNS enrichment (R)": 0.856}
{"Sequence": "AAUGACAAGUGAAUCAUAUUGACAUUUUACAAUCUUAGAUUUUUCUUUUUUUUUCUUUUGAGACAGGGUCUUGAUCCGUCGCCCAGGCGGGAGUUGCAGUAGCAUGAUCA", "RBNS enrichment (R)": 12.5}
{"Sequence": "UUUGAAGCUCUAUGUUGCCAUAAUUACCAUCAAGUACACACUGUUGGCAAAAGGCUAACACCUGACUUUAGAAAAUGCUGAUUUGAGAACAAAAGGAAAGGUCUUUUUUC", "RBNS enrichment (R)": 0.304}
{"Sequence": "UUCUACUUCAGCUCUGGAUGUGGUUACCAAGUAUCUGUAACCCUUGAGCCCCUAGACAGUAUUGCCAUCUCUGGCCAAAUAUGCACUUUCCCUAGAAAGCCAUAUUCCAG", "RBNS enrichment (R)": 0.676}
{"Sequence": "CAUCUUUAGAUGCAUUUCAGAGCCAAUGAUGAUAUUUGCUUUAGAUAAUUAUUAUAUUAUUAUAAAUAUAGCCAUAUUAUUUUGAAUUCAAAUAAAUUUCUAUACUGGUA", "RBNS enrichment (R)": 1.08}
{"Sequence": "UUUUGUGAGUAUUGCCUAUUAAGUAAACAACAUCCCUCAUUUUUAAUCCAAAUAUCAAUUUGACAGAAUAACAAGGGUCAGAAAUUCAAAAUAGCUGUUAGACACCUUUG", "RBNS enrichment (R)": 0.294}
{"Sequence": "ACACUUGUUAGUCUCUGUGAGCCCAGGCCUGAGCUGGGGGAAAGUAGGAAGAUUUGGGCAUAUAUGCUCUCUAUUGGUUCCUUCCAUAUUAAACAUACCUGUGUUUUGAG", "RBNS enrichment (R)": 0.442}
{"Sequence": "UGUCAGGAGGGAAGAGGGGAGUCUACGCUCACAACCCAGGCACUGGACAGCUGCAGCCUGGCUAGGCCACUGACCCCACAGUCCAUAUAAGCUGACCAUGCAGCUCGCUG", "RBNS enrichment (R)": 0.398}
{"Sequence": "UGGAUGGGGUCAAGAGGCCAGGCCUGGCACAUUUUGGAGUGUCCUGGCUACCAGCUCUCACCUACACCCACGCACCCCCCCACACACUAUGCUCUCUCAAGAAUGUAAUU", "RBNS enrichment (R)": 0.514}
{"Sequence": "AAUAUUUGAUUGCAUAUUUAGUUGUAGUAAGAUUUUAUAAAAUACAUAAUCCUUUGUAUGUGCAGUUUGUAAAGUAUCUGCAGAAUUAAAUGCUCUUAUUUACAGAUCAG", "RBNS enrichment (R)": 0.599}
{"Sequence": "AUCACUAGUCCUUACAGAACAGGAGCCAGAACUCUGGCAGACAUCAAAGCAAAAGCCCAGUUGGUCAAAGCACAAAAGGCAGCAGCCGCAGCAGCUGCUGCAGCUGCUGC", "RBNS enrichment (R)": 0.257}
{"data": "Series 2", "target": "RING finger protein unkempt homolog, zinc fingers 1-6, GST-SBP tag (UNK, Homo sapiens, UniProt Q9C0B0, residues 30-357)", "method": "RNA Bind-n-Seq", "molecule type": "RNA", "sample": "in vitro", "tested at": "not given", "notes": "RNA with constant flanks, human and mouse sites, ends assumed", "relative to": "input RNA pool", "direction": "higher = stronger binding", "constant ends, left off below": "GGGAGUUCUACAGUCCGACGAUC … CAACAGAGGAUUGAGCAUCA", "UniProt Q9C0B0, sequence (30-357, looked up)": "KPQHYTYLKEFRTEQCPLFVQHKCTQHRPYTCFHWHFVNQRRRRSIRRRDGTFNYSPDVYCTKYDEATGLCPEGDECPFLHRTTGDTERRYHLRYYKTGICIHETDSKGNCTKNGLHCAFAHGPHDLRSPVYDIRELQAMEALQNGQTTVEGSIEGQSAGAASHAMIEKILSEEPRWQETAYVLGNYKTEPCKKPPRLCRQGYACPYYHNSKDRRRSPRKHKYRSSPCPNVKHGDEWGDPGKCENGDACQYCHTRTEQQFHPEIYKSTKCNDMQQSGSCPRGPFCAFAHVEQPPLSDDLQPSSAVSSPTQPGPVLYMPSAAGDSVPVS"}
{"Sequence": "CCUGGCACCCGAGCCCCUGAUCCCACAGAUAGUCGAAGUCUUCAUAUUCAGCACCCAGGGUAUAGAUAGGGAGCCGGGACGCUCUCCUCAGGCAACACACAUUGCCCUUCUAGGUUUAGU", "bound/input enrichment [ratio]": 1.62}
{"Sequence": "GCCGCACUCGGACCCGGGAAGCCGUGCUCUCUCCCCGAUUCUCCGCGGAGGACCCUAGGAAAAUUGUGCAAUGAAUGGUGACACUCGGGCCGCAGUGGUGACCUCACCACCUCCAACCAC", "bound/input enrichment [ratio]": 0.155}
{"Sequence": "CCGACGCUGGCGCGGGCACUGUCAAAGCACAGUCUGCUGUCUCCCUUGCCUAGUGUGACAUCAUUCAGACGCUUCUACAGAGGUGACAGCCCAACAGACUCUCAAAAAGACAUGAUUGAA", "bound/input enrichment [ratio]": 0.141}
{"Sequence": "GAGCAUCCCCCAAAGUUCACAAUGUGGCCGAGGACUUUGAUUGCACAUUGUUGUUUUUUUAAUAGUCAUUCCAAAUAUGAGAUGCGUUGUUACAGGAAGUCCCUUGCCAUCCUAAAAGCC", "bound/input enrichment [ratio]": 0.54}
{"Sequence": "GAAUAAGGAGCACGAUGCAAGGGCGCUGUGGCCCCCGGGUGAUCUCCCACCACACUUACUGUCUUCCUUUAUCUCUGUGGACUUGUAUAUAUUCUGGAAGGGGAACCACAGUUUCACCAU", "bound/input enrichment [ratio]": 0.217}
{"Sequence": "UUUCCUAUCAAUGGAUCCAGAUUCAAAUGUAGAAACUGUGAUGACUUUGAUUUUUGUGAAACAUGUUUCAAGACAAAAAAACACAACACCAGGCAUACUUUCGGCAGGAUUAAUGAGCCA", "bound/input enrichment [ratio]": 0.171}
{"Sequence": "AAGGAACUCCAGGUUGAACUGUCUGGCUGAAGCAAGGGAGGGUCUGGCACGCCCCACCAAUAGUAAAUCCCCCUGCCUAUAUUAUAAUGGAUCAUGCGAUAUCAGGAUGGGGAAUGUAUG", "bound/input enrichment [ratio]": 0.512}
{"Sequence": "CUCCUGUAAUCACUUUUGGAGGGCUGCUUGGAGAAGCUACAGAAGGCAGAAUAAGUGCAAUAGAGUCUCUUUUUGGAGCGUCAUUAACUGGGAUUGCCUAUUCAUUGUUUGCUGGGCAAC", "bound/input enrichment [ratio]": 0.218}
{"Sequence": "GACCUGGACCUCACACUGCUGAAUCCCCGAAUGAUUGUGGAUGUCACCCCAUAUAUGAAUCCUUCACCAUUUACCGUCUCCCCCAACACCCAUGUUUCUCAAGUGUUCAACCUGUUCAGA", "bound/input enrichment [ratio]": 0.629}
{"Sequence": "AAAACCUGGUAUGGAGUCCCAGGGUAUGCUGCUGAGCAGCUAGAAAAUGUAAUGAAGAAACUAGCUCCAGAACUCUUUGUGUCCCAGCCGGAUCUCCUCCAUCAGCUUGUGACCAUCAUG", "bound/input enrichment [ratio]": 0.392}
{"Sequence": "GUGUCACUGUUGUCAUCUGAAGAAGAACCAUUAGAGUCAACAGUCUGGGAUGAUUUGGAAGCUAGGUGAUCUGUGUUUUUUUCUUAAAAUAACAUCGUAGCACAGAGGAACUCUACCAGC", "bound/input enrichment [ratio]": 0.2}
{"data": "Series 3", "target": "Sal-like protein 4, full length isoform B (SALL4, Homo sapiens, UniProt Q9UJQ4-2, residues 1-616)", "method": "universal PBM", "molecule type": "double-stranded DNA, one strand shown", "sample": "in vitro", "tested at": "not given", "notes": "8-mer, flanks averaged, mean of replicates", "direction": "higher = stronger binding"}
{"Sequence": "CTCTTCAG", "E-score": -0.117}
{"Sequence": "CAACATTG", "E-score": 0.165}
{"Sequence": "AAGAACGT", "E-score": 0.149}
{"Sequence": "ATGATGCG", "E-score": 0.0335}
{"Sequence": "AACTCTCA", "E-score": 0.0703}
{"Sequence": "ATAGCTGG", "E-score": -0.0789}
{"Sequence": "AGAACAAG", "E-score": 0.198}
{"Sequence": "ATGAAACA", "E-score": 0.26}
{"Sequence": "CTTAGAAG", "E-score": -0.00755}
{"Sequence": "GACTGCCA", "E-score": -0.0475}
{"Sequence": "ATTGGCGG", "E-score": 0.131}
{"Sequence": "AACTATTA", "E-score": 0.297}
{"Sequence": "CGGATCTC", "E-score": -0.304}
{"Sequence": "ATTGTTTG", "E-score": 0.231}
{"Sequence": "GTCTAAAA", "E-score": 0.046}
{"Sequence": "ACCCCTCG", "E-score": -0.169}
{"Sequence": "CGCTGCAA", "E-score": 0.00358}
{"Sequence": "GACGGCTA", "E-score": -0.0154}
{"Sequence": "GCGGGGCC", "E-score": -0.418}
{"Sequence": "GGCCTAAA", "E-score": -0.0445}
{"Sequence": "ATGGCTAA", "E-score": 0.164}
{"Sequence": "AGACGAAA", "E-score": 0.182}
{"Sequence": "ATCCAAGC", "E-score": -0.2}
{"Sequence": "GCCTCGAC", "E-score": -0.163}
{"Sequence": "GCAAGGAA", "E-score": -0.138}
{"data": "Series 4", "target": "Histone acetyltransferase KAT6A, winged helix 1, GST fusion (KAT6A, Homo sapiens, UniProt Q92794, residues 1-85)", "method": "protein binding microarray", "molecule type": "double-stranded DNA, one strand shown", "sample": "in vitro", "tested at": "not given", "notes": "8-mer, flanks averaged, mean of 2 arrays, mostly near background", "relative to": "not given", "direction": "higher = stronger binding", "Target sequence (chain)": "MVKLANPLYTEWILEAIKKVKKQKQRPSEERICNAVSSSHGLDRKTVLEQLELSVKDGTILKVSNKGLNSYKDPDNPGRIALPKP"}
{"Sequence": "CGTGTTCC", "E-score": 0.0844}
{"Sequence": "AGTAAACA", "E-score": -0.126}
{"Sequence": "GAGTCCGA", "E-score": -0.0105}
{"Sequence": "ATGATTAG", "E-score": 0.0196}
{"Sequence": "ATTGGCTA", "E-score": -0.174}
{"Sequence": "CCGCCGTA", "E-score": 0.448}
{"Sequence": "CAAAAAAA", "E-score": -0.0997}
{"Sequence": "CACTGTTC", "E-score": -0.211}
{"Sequence": "ACTTTCAG", "E-score": -0.143}
{"Sequence": "ATCGTTGA", "E-score": -0.176}
{"Sequence": "ACCACGCT", "E-score": 0.0385}
{"Sequence": "GAATATAC", "E-score": 0.103}
{"Sequence": "CGGTGGAA", "E-score": 0.063}
{"Sequence": "AAAGAATA", "E-score": -0.149}
{"Sequence": "GACGACTA", "E-score": -0.0421}
{"Sequence": "GCAGAGGC", "E-score": 0.013}
{"Sequence": "CCGCAATC", "E-score": 0.224}
{"Sequence": "GCAGAAGA", "E-score": -0.177}
{"Sequence": "CAGTGGCC", "E-score": -0.0362}
{"Sequence": "TCATGCCA", "E-score": -0.252}
{"Sequence": "GGTTAAGA", "E-score": 0.0107}
{"Sequence": "ACGGTTCG", "E-score": 0.148}
{"Sequence": "TATGACCA", "E-score": -0.0845}
{"Sequence": "ACGTAATG", "E-score": -0.0509}
{"Sequence": "CAGAGTCC", "E-score": -0.0947}
{"note": "Some of these lines once more (series 1):"}
{"Sequence": "CUCUGUCUUACACACAUGCACACAUACACACACACUAAGUGCCUAGACUUUGAAUAGAUCUAGCAAUUGGACAUUAGUAAGCCUAAGUUUUUACAUGAUUGCAUUCCUAC", "RBNS enrichment (R)": 0.856}
{"Sequence": "GUUAUUGGGACUUGUAUUAUAGGUGAUGGUAUGUGAGAAUCCAGUUGGGACUCGCUGUUGCCAUCCUCUUUGUUGUAUCUGGUUUUCAUCACUAGACUCAGCAACCCUUC", "RBNS enrichment (R)": 0.323}
{"Sequence": "AAUGACAAGUGAAUCAUAUUGACAUUUUACAAUCUUAGAUUUUUCUUUUUUUUUCUUUUGAGACAGGGUCUUGAUCCGUCGCCCAGGCGGGAGUUGCAGUAGCAUGAUCA", "RBNS enrichment (R)": 12.5}
{"Sequence": "ACACUUGUUAGUCUCUGUGAGCCCAGGCCUGAGCUGGGGGAAAGUAGGAAGAUUUGGGCAUAUAUGCUCUCUAUUGGUUCCUUCCAUAUUAAACAUACCUGUGUUUUGAG", "RBNS enrichment (R)": 0.442}
{"Sequence": "UUUGAAGCUCUAUGUUGCCAUAAUUACCAUCAAGUACACACUGUUGGCAAAAGGCUAACACCUGACUUUAGAAAAUGCUGAUUUGAGAACAAAAGGAAAGGUCUUUUUUC", "RBNS enrichment (R)": 0.304}
{"Sequence": "CAUCUUUAGAUGCAUUUCAGAGCCAAUGAUGAUAUUUGCUUUAGAUAAUUAUUAUAUUAUUAUAAAUAUAGCCAUAUUAUUUUGAAUUCAAAUAAAUUUCUAUACUGGUA", "RBNS enrichment (R)": 1.08}
